Experimental data pooled from the literature.
Parts stem from different laboratories: compare values within a part only.

Block 1 — method: protein-binding microarray; form: double-stranded DNA, one strand shown; sample: in vitro; concentration: 250 nM; setting: 60-bp whole probe; together with: salmon DNA 0.4 mg/ml; baseline: random background probes; reading: higher = stronger binding; measurement: log fluorescence; shared flanks, not repeated: GCCTAGCAC … GTCTTGATTCGCTTGACGCTGCTG
Target: Interferon regulatory factor 5, full length, phosphomimetic (IRF5, Homo sapiens, UniProt Q13568-2, residues 1-514, K96S/S451D/S453D/S456D/S462D)
GACGGTTTCGGGCTTCGGGACGTGCTA: 4.63 z-score
TTAGAACTGGTGTATCGATTAGTGCTA: 2.66 z-score
GACGATTCCAGTTTCGTGACGTGCTAG: 2.38 z-score
TTAGATTTCAGGCTGGATTAGTGCTAG: 0.529 z-score
CTTTAACTCATTCTCTGCTTGTGCTAG: 0.623 z-score
TGAGGTTTCGGTTTCGGTTAGTGCTAG: 11.7 z-score
TTAGGTTTCCTACTGCATTAGTGCTAG: 0.56 z-score
TCTACTTCTCTTTTTGCTTTGTGCTAG: 1.44 z-score
TCACAACTCGCCTTTTTTACTGTGCTA: 0.502 z-score
TTAGATATGAGACTGGATTAGTGCTAG: 0.0542 z-score
GACGGTTTCGGTATCGGGAAGTGCTAG: 9.51 z-score
GACGATATCAGTATCGACACGTGCTAG: 4.33 z-score
TCAGTTTTCCTTATTGCACTGTGCTAG: 1.63 z-score
TCAAAGATTGCCGTTTCCACTGTGCTA: 0.366 z-score
TTAGGACTGTACTATCGGTTAGTGCTA: 7.26 z-score
TCAAGTTTTACTTTCTAACTGTGCTAG: 1.96 z-score
AACTCTTTGCAGATAAATACGTGCTAG: 0.278 z-score
GACCGTATCGACTTTCGGGACGTGCTA: 6.77 z-score
GACGGTCTCGGTTTCGGGCCGTGCTAG: 2.7 z-score
TATGGTATTTTTTTGTAATCGTGCTAG: 0.776 z-score
TTAGGTATCGTGACTGGGTTAGTGCTA: 0.461 z-score
GACGCTTTCGGGACTGGGGACGTGCTA: 5.81 z-score
AGATTTTTTTTCCTAATTGAGTGCTAG: 0.8 z-score
GACGGACTGCTTTTCCTGACGTGCTAG: -0.0924 z-score
TTTGGTATCGGTCTCGGTTAGTGCTAG: 9.05 z-score

Block 2 — method: RNA Bind-n-Seq; form: RNA; sample: in vitro; concentration: 1 µM; setting: whole 134-nt RNA, ends assumed; together with: 150 mM KCl; baseline: input library; reading: higher = stronger binding; measurement: log2 enrichment
Target: Ras GTPase-activating protein-binding protein 1, RRM domain (G3BP1, Homo sapiens, UniProt Q13283)
UniProt Q13283, sequence (whole entry, looked up): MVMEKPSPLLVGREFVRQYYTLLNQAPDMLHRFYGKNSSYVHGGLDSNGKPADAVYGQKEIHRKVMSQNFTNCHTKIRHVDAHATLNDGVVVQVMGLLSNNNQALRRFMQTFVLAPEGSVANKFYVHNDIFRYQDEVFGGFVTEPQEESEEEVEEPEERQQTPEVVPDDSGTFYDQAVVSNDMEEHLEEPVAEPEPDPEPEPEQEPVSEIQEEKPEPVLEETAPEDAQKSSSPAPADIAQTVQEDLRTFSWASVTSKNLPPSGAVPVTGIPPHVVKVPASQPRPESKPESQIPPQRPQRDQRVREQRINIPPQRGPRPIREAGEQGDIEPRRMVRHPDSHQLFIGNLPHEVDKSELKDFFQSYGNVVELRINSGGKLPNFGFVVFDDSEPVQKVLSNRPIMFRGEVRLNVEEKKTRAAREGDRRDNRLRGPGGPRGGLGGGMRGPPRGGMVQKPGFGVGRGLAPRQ
Shared flanks, not repeated: GGGAGUUCUACAGUCCGACGAUC … UGGAAUUCUCGGGUGUCAAGG
AGUCCUGUGCUACACAUCGUAUGUACCGAAUCGGGGAAAAGGGGAAAAGGGAAAAGGAAAGUAUUAUGUUACGCCGUUCGGAUCUGCACU: -0.0379
AGUCCUGUGCUACACAUCGUAUGUACCGAAUCGGGAAAGGGAAAGGGAAAAAAAGGGAAAGUAUUAUGUUACGCCGUUCGGAUCUGCACU: 0.24
AGUCCUGUGCUACACAUCGUAUGUACCGAAUCGGGUUUUUUUGGGUUUGGGAAAGGGAAAGUAUUAUGUUACGCCGUUCGGAUCUGCACU: 0.313
CUCAAGUCCUGUGCUACACAUCGUAUGUACCGAAUCGGUUUGGAAAGGUUUGGAAAGUAUUAUGUUACGCCGUUCGGAUCUGCACUUCCA: -0.271
CCUCAAGUCCUGUGCUACACAUCGUAUGUACCGAAUCGGAAGGAAGGGAAGGAAAGUAUUAUGUUACGCCGUUCGGAUCUGCACUUCCAG: -0.142
CAAGUCCUGUGCUACACAUCGUAUGUACCGAAUCGGAGGUUUUUUUGGUUUUUGGAAAGUAUUAUGUUACGCCGUUCGGAUCUGCACUUC: -0.316
GGGGAGGUGGAUUUUGUUUAUUUUUUUAGCUCAUUUCCAGGGGUGGGAAUUUUUUUUUAAUAUGUGUCAUGAAUAAAGUUGUUUUUGAAA: 1.45
CACAGACAACACGCACCCACACAGACACAGAGGGAAGGGGUCGGGAUGGGGACAGGGUGCACAGCAGGGCGGGGUAGGACCCCAGCCCCU: -0.0739
GUCCUGUGCUACACAUCGUAUGUACCGAAUCGGUUUUUGGGGUUUUUGGGUUUUUGGGGAAAGUAUUAUGUUACGCCGUUCGGAUCUGCA: -0.0657
AGUCCUGUGCUACACAUCGUAUGUACCGAAUCGGAAAAAAAGGUUUUUUUGGUUUGGAAAGUAUUAUGUUACGCCGUUCGGAUCUGCACU: -0.575
UUCAGGAUUGUGAGGGUGAAACUCCCAUUCACAAGGCAGCUCGCUCUGGGAGCCUAGAAUGCAUCAGUGCCCUUGUGGCGAAUGGGGCUC: -0.348
CCUCAAGUCCUGUGCUACACAUCGUAUGUACCGAAUCGGAGGUUUGGUUUGGAAAGUAUUAUGUUACGCCGUUCGGAUCUGCACUUCCAG: -0.27
GUCCUGUGCUACACAUCGUAUGUACCGAAUCAAACCCCCCCAAACCCAAACCCCCAAAAAAGUAUUAUGUUACGCCGUUCGGAUCUGCAC: -0.126
GCAGGAAGUAAAAACAAAUGGAAAUGCUUCGGAUAAAGGCAGGGGUGGGGGUUGCUAAGGAAAGGGUGGGAUGGGAGUGGGUAAAGAGUU: 1.44

Block 3 — method: protein binding microarray; form: double-stranded DNA, one strand shown; sample: in vitro; concentration: not given; baseline: not given; reading: higher = stronger binding; measurement: E-score
Target: Histone acetyltransferase KAT6A, both winged helices, GST fusion (KAT6A, Homo sapiens, UniProt Q92794, residues 1-181)
Setting: 8-mer, flanks averaged, mean of 2 arrays, mostly near background
Residues (chain): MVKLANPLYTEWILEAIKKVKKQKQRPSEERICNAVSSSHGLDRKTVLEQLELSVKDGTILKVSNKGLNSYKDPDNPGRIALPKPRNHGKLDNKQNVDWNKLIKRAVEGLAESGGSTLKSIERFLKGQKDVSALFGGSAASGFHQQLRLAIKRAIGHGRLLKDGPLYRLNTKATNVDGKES
AAGCAACG: 0.00068
GCAGAGGC: -0.0968
TAACGGGA: 0.213
AGTGAGAA: -0.0881
AATGCTAG: -0.119
TACGTTGA: -0.0821
CCAGCGGG: 0.244
AGCAGTGC: -0.0587
ACGAGCGT: 0.0669
CTGTGCCA: -0.152
AATCGGAT: 0.0942
CTAGCTAA: -0.113
ACTGTGGG: -0.151
AGATCAAA: -0.0856
CCTAATAA: -0.0819
AGGTACAG: -0.21
ACCGTCAA: 0.212

Block 4 — method: RNA Bind-n-Seq; form: RNA; sample: in vitro; concentration: 365 nM; baseline: no-protein control; reading: higher = stronger binding; measurement: RBNS enrichment (R)
Target: RNA binding protein fox-1 homolog 2, RRM domain, GST-SBP tag (RBFOX2, Homo sapiens, UniProt O43251-10, residues 100-194)
Setting: natural RNA segment, single round, ends assumed
Shared flanks, not repeated: GGGAGUUCUACAGUCCGACGAUC … UGGAAUUCUCGGGUGCCAA
Target sequence (chain): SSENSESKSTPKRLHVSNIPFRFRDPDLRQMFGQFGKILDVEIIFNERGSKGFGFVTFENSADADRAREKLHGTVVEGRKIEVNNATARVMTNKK
CUGGGCCCUUGAGAGGGGCUCUGUGGCUGCAGAGCUGUUUUUACCCUGACAACUGGGUUUGUCCUCCCUACUCCCACCCCAAGUGGUCAAUAAGUCUUAUUUGCAAAAGC: 0.63
CAAACUUUUGUAUGGUUGGGAGAUGUGGCUGGAAAGUACUUUGGAAAAUAUACAAUCAAGAUAUUUCGUCUCAUAUUAAAAGAGAAAUCUCAAUCACAGUGUUGGCUUUU: 0.454
UGGAGACACUGUGUGUAUCUCUAGAUAAGAAGAUAUGCACCACGUUGAAAAUACUCAGUGUAGAUCUCUAUGUGUAUAGGUAUCUGUAUAUCUUUCCUUUUGUUUACAAC: 0.301
AUUUGGAAAGUUGCAAAGAAGGUAGAUUUGGGGGCAGGAAAAACAACCCUUUUCACAGUGUACUGUGUUUGGUUGGUGUAAAACUGAUGCAGAUUUUUCUGAAAUGAGAU: 0.678
AAAACGUUUCCCCAGGCCCUGCUGUCUGCCAGGAGUGCCAAGUGUCAACUGUUUACACACAAACUGCCAUGUCCCACGCCCCUUCCCUCUCCUUGUUUGCUAUGGGGGAG: 1.24
GUUUGCUGGUCCUCAAACAGGCACUGAAAUCUCAGUAUGGGUAUACGAUUUAAUAAUCGGCCCCUCCCUUCUAUUUGUCGGUUUUAUGUUUCUAUCCUUCAAUAGCUGCA: 1.55
ACAGAACCCAGGGCUUAAUGCGUGGCAGCUAAGCACUCUAUCAACUGAGUUACAUCUCCAUCCUGUAACUGAUCUUUGAGCUUGGUCAUCAGGCCCUUAAUUAUGGCAGA: 0.269
UACAAAAAUGACUGUAUUCUCUCACCAGUAGGACUUAAACUUUGUUUCUCCAGUGGCUUAGCUCCUGUUCCUUUGGGUGAUCACUAGCACCCAUUUUUGAGAAAGCUGGU: 0.352
CAAAACAAAUCAAUCGGGAGGGGACCACUGAGAAAGAGGUAACAGUUAUUAAAGGAUGUUUUUGCAACUCUGGAGUGCCUGGGUAGUUGCAUUCUGAAGAGGGUGUCCCC: 0.654
CGUAGUAUGCAGCCAGUGGUUAGUUAUUACAAAGAUCCCUUAGUUACUGUAUUGUUUGCUUUCCUUAAGUGCAGUCAUCUCUGAUAGCUUGAGUGAUGGUGUUUCAAAUC: 0.289
AGGCCAUCGACGACCUCAUGCCUGCCCAGAAAUGAAGCCCGGCCCACACCCGACACCAGCCCUGCUGCUUCCUAACUUAUUGCCUGGGCAGUGCCCACCAUGCACCCCUG: 0.797
UUCAAGAGACUCGUAGAUGACUUUGCCUCCACAGCCGAUUUCCUCAUCAUUUACAUUGAAGAAGCUCACGCCACAGAUGGCUGGGCUUUUAAGAACAACGUGGACAUCCG: 0.276

Block 5 — method: universal PBM; form: double-stranded DNA, one strand shown; sample: in vitro; concentration: not given; reading: higher = stronger binding; measurement: E-score
Target: Sal-like protein 4, full length isoform B (SALL4, Homo sapiens, UniProt Q9UJQ4-2, residues 1-616)
Setting: 8-mer, flanks averaged, mean of replicates
Construct (chain): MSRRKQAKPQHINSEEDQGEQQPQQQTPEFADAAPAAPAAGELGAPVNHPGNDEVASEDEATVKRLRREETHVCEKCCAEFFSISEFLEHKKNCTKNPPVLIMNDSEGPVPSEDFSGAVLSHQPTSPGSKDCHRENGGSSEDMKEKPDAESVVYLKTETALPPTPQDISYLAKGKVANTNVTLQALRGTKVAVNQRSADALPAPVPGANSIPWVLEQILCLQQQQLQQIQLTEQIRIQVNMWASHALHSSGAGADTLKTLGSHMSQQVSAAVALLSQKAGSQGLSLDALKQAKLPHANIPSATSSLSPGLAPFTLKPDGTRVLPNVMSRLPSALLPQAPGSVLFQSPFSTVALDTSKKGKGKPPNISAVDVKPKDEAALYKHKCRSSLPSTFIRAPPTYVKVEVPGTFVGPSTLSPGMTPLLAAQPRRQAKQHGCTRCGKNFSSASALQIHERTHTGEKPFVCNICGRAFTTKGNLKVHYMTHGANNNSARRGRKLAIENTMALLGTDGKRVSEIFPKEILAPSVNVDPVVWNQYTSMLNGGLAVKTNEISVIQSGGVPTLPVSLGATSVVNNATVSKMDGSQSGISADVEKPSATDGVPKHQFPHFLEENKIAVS
CCCGTCCC: -0.347
CACGAGAG: -0.168
CGAGGGCG: -0.208
CATAAGGG: 0.141
TCAGTCCA: -0.243
CCTTCGCG: -0.221
CAAGTGAA: 0.17
GTGTAGCA: -0.0707
ACTGGTCA: -0.0712
AATTACGA: 0.283
CGTGAACC: -0.183
CATAGACA: 0.125
TAATCCGA: 0.175
CTTTGGTC: -0.0459
CGCAGACC: -0.264
GGGGGGAC: -0.328
GCGGAGCA: -0.199
CATTGACG: 0.0285
ATCGCGAT: 0.0657
GATCCAAC: -0.0481
CCGGTGTC: -0.343
ATCCCTAG: 0.0288
AGAAATCC: -0.0355

Single results of other studies
PhoQ, residues 284 288 289 292 302 303 GNNTDL — fold induction (PhoP, residues 12 14 15 18 19 LHHSG (Escherichia coli, UniProt P23836); Sort-seq, item: YFP reporter; E. coli; PhoQ-PhoP variant library, together with: 10 µM Mg2+; baseline: high Mg2+ state, higher = stronger signaling): 1.35

A few entries again (block 1):
GACGATTCCAGTTTCGTGACGTGCTAG: 2.38 z-score
TTAGATTTCAGGCTGGATTAGTGCTAG: 0.529 z-score
TTAGAACTGGTGTATCGATTAGTGCTA: 2.66 z-score
AGATTTTTTTTCCTAATTGAGTGCTAG: 0.8 z-score
CTTTAACTCATTCTCTGCTTGTGCTAG: 0.623 z-score
TTAGGTATCGTGACTGGGTTAGTGCTA: 0.461 z-score
TCAAAGATTGCCGTTTCCACTGTGCTA: 0.366 z-score
TCAAGTTTTACTTTCTAACTGTGCTAG: 1.96 z-score
